Measurements from different studies.
Each numbered part is a random draw from the data of one study; scales do not carry over between parts. Positions count from the first letter of the parent shown.

Set 1
Target: CCND2, cyclin fold, Cln2 fusion (human)
Method: yeast growth competition, sequencing
Matrix: yeast
Setting: strong parent motif
Reference: not given
Reading: higher = stronger binding
Starting sequence: viral docking peptide; YKVKRRLVFGADD; partner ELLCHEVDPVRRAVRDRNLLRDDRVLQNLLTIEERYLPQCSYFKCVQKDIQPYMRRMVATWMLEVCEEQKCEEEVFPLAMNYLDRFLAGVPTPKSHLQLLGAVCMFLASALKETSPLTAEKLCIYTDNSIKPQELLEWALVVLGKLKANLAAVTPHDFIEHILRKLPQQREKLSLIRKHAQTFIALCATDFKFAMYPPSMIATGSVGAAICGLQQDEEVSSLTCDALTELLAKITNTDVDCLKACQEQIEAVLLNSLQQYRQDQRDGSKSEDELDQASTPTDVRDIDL
| Substitution | normalised enrichment score |
| --- | --- |
| K4W | -0.0586 |
| R5A L7A | 0.137 |
| V8T | 1.89 |
| K2G | 1.35 |
| R6T | 0.166 |
| V3W | -0.357 |
| R5Q | 0.283 |
| R6S | 0.234 |
| A11Q | 1.02 |
| R5K | 0.613 |
| V8M | 0.764 |
| K4Q | 1.81 |
| R5M | -0.226 |
| A11H | 1.18 |
| D12F | 0.809 |
| A11W | 1.17 |
| G10I | 0.94 |
| F9G | 0.028 |
| K4T | 0.429 |
| V8C | 1.19 |
| A11D | 2.48 |
| D12L | 0.566 |
| R6I | 0.274 |
| R6Y | 0.0208 |
| R5C | 0.32 |

Set 2
Target: Histone acetyltransferase KAT6A, both winged helices, GST fusion (KAT6A, Homo sapiens, UniProt Q92794, residues 1-181)
Method: protein binding microarray
Form: double-stranded DNA, one strand shown
Matrix: in vitro
Tested at: not given
Setting: 8-mer, flanks averaged, mean of 2 arrays, mostly near background
Reference: not given
Reading: higher = stronger binding
Construct (chain): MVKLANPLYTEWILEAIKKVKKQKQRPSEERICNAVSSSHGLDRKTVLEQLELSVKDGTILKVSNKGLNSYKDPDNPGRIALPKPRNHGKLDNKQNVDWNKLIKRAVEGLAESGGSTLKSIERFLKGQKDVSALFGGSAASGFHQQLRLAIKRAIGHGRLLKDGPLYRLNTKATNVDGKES
| Strand | E-score |
| --- | --- |
| AAAGGGGC | -0.185 |
| CGGGTGCC | 0.287 |
| CACGTAGG | -0.203 |
| ATGATAGC | 0.159 |
| CAATTCGC | 0.112 |
| CTGCGAAG | -0.0634 |
| CACCTGTC | -0.0739 |
| CAAATGAC | -0.0896 |

Set 3
Target: Runt-related transcription factor 1, full length (RUNX1, Homo sapiens, UniProt Q01196-8, residues 1-480)
Method: protein-binding microarray
Form: hairpin DNA
Matrix: in vitro
Tested at: not given
Setting: whole hairpin DNA, median over replicate spots
Reference: not given
Reading: higher = stronger binding
| Strand | median fluorescence |
| --- | --- |
| GAGGCCCCGCCGCAACAGCCTCCTGGCTGTTGCGGCGGGGCCTCACACTC (5mC at 8 36) | 2390 a.u. |
| GAGGCCCAAACGCAACAGCCTCCTGGCTGTTGCGTTTGGGCCTCACACTC | 1760 a.u. |
| GAGGCCTGATGCGGTTGGCCTCCTGGCCAACCGCATCAGGCCTCACACTC | 3330 a.u. |
| GAGGCCTCTCGCGGTTGGCCTCCTGGCCAACCGCGAGAGGCCTCACACTC | 2440 a.u. |
| GAGGCCTGTCGGGGTTGGCCTCCTGGCCAACCCCGACAGGCCTCACACTC | 2060 a.u. |
| GAGGCCTGTCGCAGTTGGCCTCCTGGCCAACTGCGACAGGCCTCACACTC | 1760 a.u. |
| GAGGCCTGATGTGGTTGGCCTCCTGGCCAACCACATCAGGCCTCACACTC | 2390 a.u. |
| GAGGCCCAACCCGAACAGCCTCCTGGCTGTTCGGGTTGGGCCTCACACTC (5mC at 12 32) | 1920 a.u. |

Set 4
Target: HLA class I histocompatibility antigen, A alpha chain, allele A*80:01 (Homo sapiens, UniProt P04439)
Observed: peptide-MHC binding
Form: peptide
Tested at: concentration not given
| Molecule | binding |
| --- | --- |
| HLSGWELAK | inactive |
| YLQAKSQVL | inactive |
| YFTFDLTAL | inactive |
| CLVSGLSSL | inactive |
| SQVRVPTVF | inactive |

Single results of other studies
Method: cross-linking MS
| Substance | partner | test system | conditions | endpoint | result |
| --- | --- | --- | --- | --- | --- |
| KRT18 (Homo sapiens, UniProt P05783) | KRT6C (Homo sapiens, UniProt P48668) | – | hits only | interaction screen | cross-linked |
| NDUFS7 (Homo sapiens, UniProt O75251) | NDUFAF3 (Homo sapiens, UniProt Q9BU61) | cell fractions | with: DMTMM | cross-linked residues | K136 to E53 |
| SIN3A (Homo sapiens, UniProt Q96ST3) | ING2 (Homo sapiens, UniProt Q9H160) | – | hits only | interaction screen | cross-linked |
| FIGNL1 (Homo sapiens, UniProt Q6PIW4) | YARS2 (Homo sapiens, UniProt Q9Y2Z4) | cell fractions | with: DMTMM | cross-linked residues | K339 to D295 |

Excerpt of the above (set 1):
| Substitution | normalised enrichment score |
| --- | --- |
| K4T | 0.429 |
| V8M | 0.764 |
| V3W | -0.357 |
| R5A L7A | 0.137 |
| A11Q | 1.02 |
| V8C | 1.19 |
